Measurements gathered from unrelated publications.
Each line is one published result; not all experiments were run side by side. ± gives the spread as reported. ≈ marks a conversion by molar mass, not a printed value.

Structure (SMILES)	target or system	test	test system	conditions	scale	measurement	value
O=C(N[C@@H](Cc1ccc(OCCCCC2CCNCC2)cc1)C(=O)O)c1nc2ccccc2o1.O=C(O)C(F)(F)F		rapid equilibrium dialysis	human plasma	time not given		mass balance recovery	94.5%
COc1cccc(OC)c1-c1cc(C(=O)NC2(C(=O)O)C3CC4CC(C3)CC2C4)nn1-c1ccc(C(=O)N(C)CCCN(C)CCCN(C)C(=O)[C@H](CCCCNC(=O)[C@H](CC(C)C)NC(=O)C2OC2C(=O)O)NC(=O)CN2CCN(CC(=O)[O-])CCN(CC(=O)[O-])CCN(CC(=O)[O-])CC2)cc1C(C)C.[177Lu+3] (mixture of isomers)			mouse, HT-29 xenograft, liver	72 h post injection		tissue uptake	1 %ID/g
[123I]c1ccc2nc(-c3ccc(-n4ccnn4)nc3)cn2c1			male Wistar rat, kidney	intravenous, 4 MBq, 24 h		tracer uptake	0.011 %ID/g
COC1CN([C@H]2CC[C@H]([C@@]3(C)Oc4c(Cl)cc(C(=O)NCc5c(SC)cc(C)[nH]c5=O)c(C)c4O3)CC2)C1		RNA-seq, item: HDAC11	human, whole blood	dose not given, 24 h	baseline: pretreatment baseline	log2 fold change	1.2
COCC1CN(C2CCN(c3cc(OC)c(Nc4ncc(Br)c(Nc5ccc6c(c5P(C)(C)=O)OCCO6)n4)cc3C)CC2)C1		first-in-human trial	human	oral, 150 mg once daily	treatment-related leading to permanent discontinuation	adverse events	16.7%
C=CC(=O)Nc1cc(Nc2nccc(-c3cn(C)c4ccccc34)n2)c(OC)cc1N(C)CCNC		storage stability	human plasma	24 h, on ice, LLOQ level		recovery	85.2%
O=C(Nc1cnccc1-c1ccc([18F])nc1)c1ccnc(NC(=O)C2CC2)c1			FVB/NJ mice (both sexes), hippocampus	intravenous, dose not given, 120 min, added: tariquidar 15 mg/kg i.v. pre-dose		SUV	0.085
C=CC(=O)Nc1cccc(Cn2ncc3cnc(Nc4cnn(CCOC)c4)nc32)c1			human, both sexes, whole blood	5 µM, 120 min		remaining compound	64.3%
C=C(NC(=O)c1csc(-c2nc3c(cc2O)-c2nc(cs2)C(=O)NC(C(C)O)C(=O)NC(=C(C)OC)c2nc(cs2)C(=O)NC2c4nc(cs4)C(=O)NC(COC(=O)c4c5c6c(cccc6n4O)COC(=O)C(OC4CC(C)(O)C(N(C)C)C(C)O4)C2OC5)c2nc-3cs2)n1)C(N)=O (centres unmarked)			female Sprague-Dawley rat, plasma	intravenous, 18 mg/kg, single dose, infusion		Cmax	10200 ng/mL
Cc1ncsc1-c1ccc(C(C)NC(=O)C2CC(O)CN2C(=O)C(NC(=O)CCCCCCCCCCN2CCCC(Nc3ncc(Cl)c(Nc4ccccc4S(=O)(=O)C(C)C)n3)C2)C(C)(C)C)cc1 (centres unmarked)	22Rv1	RNA-seq, item: PDIK1L		concentration not given	baseline: DMSO	log2 fold change	-1.86
Cc1cc(-c2ccc(C(=O)[C@@H]3CCCC[C@H]3C(=O)Nc3cnn4c3C(=O)NCC4)cc2)[nH]n1			human, faeces	oral, 200 mg, 0-24 h	baseline: dose	recovery of radioactivity per interval	5.79%
CN(O)C(=O)CCC(=O)NCCCN(CCCCN(CCCNC(=O)CCC(=O)N(C)O)C(=O)CCC(=O)N(C)O)C(=O)CCC(=O)N(C)O.[89Zr]			mouse, lung	24 h		tracer uptake	0.01 %ID/g
COc1cccc(OC)c1-c1cc(C(=O)NC2(C(=O)O)C3CC4CC(C3)CC2C4)nn1-c1ccc(C(=O)N(C)CCOCCN(C)C(=O)[C@H](CCCCNC(=O)[C@H](CC(C)C)NC(=O)C2OC2C(=O)O)NC(=O)CN2CCN(CC(=O)[O-])CCN(CC(=O)[O-])CCN(CC(=O)[O-])CC2)cc1C(C)C.[177Lu+3] (mixture of isomers)			mouse HT-29 xenograft	72 h, biodistribution	baseline: tumour over large intestine	tumour-to-large intestine ratio	21.4
C[C@]12C[C@H](c3ccc(S(C)(=O)=O)cc3)C3=C4CCC(=O)C=C4CC[C@H]3[C@@H]1CC[C@@]2(O)C(F)(F)C(F)(F)F		item: compound (parent)	healthy human volunteers, pooled plasma	oral, 5 mg daily, day 28, 240 h		plasma concentration	0.594 ng/mL
CCn1nc(Cl)c2c1-c1cnc(N)c(c1)O[C@H](C)c1cc(F)ccc1-c1nn(C)cc1C2			bovine, serum			fraction unbound	0.32
CC[C@H](C)[C@H](NC(=O)[C@H](N)Cc1ccc(O)cc1)C(=O)N[C@H]1CSSC[C@@H](C(=O)N(C)[C@H](C(=O)N[C@@H](CCCCN)C(=O)N[C@@H](CCCCN)C(=O)N[C@@H](CCCCN)C(N)=O)[C@@H](C)CC)NC(=O)[C@H](CCCNC(=N)N)NC(=O)[C@H](Cc2c[nH]cn2)NC(=O)[C@H](C)NC(=O)CN(C)C(=O)[C@H](Cc2c[nH]c3ccccc23)NC(=O)[C@H](CC(=O)O)NC(=O)[C@H](CCC(N)=O)NC(=O)[C@H](Cc2cn(C)c3ccccc23)NC(=O)[C@H](C(C)C)NC1=O			cynomolgus monkey, vitreous	intravitreal, dose not given, C3-saturating levels		intraocular residence	> 3 months
C=CC(=O)Nc1cc(Nc2nccc(-c3c[nH]c4ccccc34)n2)c(OC)cc1N(C)CCN(C)C		storage stability	human plasma	2 h, on ice, LLOQ level		recovery	99.6%
COc1ccc2nc(-c3ccc(N(C)C)cc3)sc2c1			PBS	free dye		excitation maximum wavelength	343 nm
CCCCC/C=C\CCCO[Si](CCCCN(CC)CC)(OCCC/C=C\CCCCC)OCCC/C=C\CCCCC				pH 5.5, formulated		zeta potential	1.89 mV

Structure (SMILES)	target or system	test	test system	conditions	scale	measurement	value
O=c1c(-c2ccc(Cl)c(CN3CCOCC3)c2)coc2cc(O)ccc12			male Sprague-Dawley rat, plasma	intravenous, 2 mg/kg		AUC(0-inf)	592 ng·h/mL
CN1C(=O)[C@@H](Cc2ccc(O)c(I)c2)NC(=O)CNC(=O)[C@H](Cc2ccc3ccccc3c2)NC(=O)[C@H](CCCNC(=N)N)NC(=O)[C@H]1CCCNC(=O)c1ccc(CNC(=O)CN2CCN(CC(=O)O)CCN(CC(=O)O)CCN(CC(=O)O)CC2)cc1 [lutetium-177 labelled]		1	human, extrapolated from mouse, red marrow			total absorbed dose	0.099 mGy/MBq
CCc1cc(C)cc(CC)c1-c1c(OC(=O)C2(C(F)(F)F)CCC2)n2n(c1=O)CCOCC2			PBS	pH 7.4, 25 °C, 2% DMSO		solubility	284 µM (≈ 132 µg/mL)
CC[C@H](C)[C@H](NC(=O)[C@H](CCCCN)NC(=O)[C@H](CCC(=O)O)NC(=O)[C@H](CCCCN)NC(=O)[C@H](CC(C)C)NC(=O)[C@H](C)NC(=O)[C@H](C)NC(=O)[C@@H](NC(=O)[C@H](CCCCN)NC(=O)[C@@H]1CSCc2ccccc2CSC[C@H](NC(=O)[C@@H](NC(=O)[C@H](CCCCN)NC(C)=O)[C@@H](C)CC)C(=O)N[C@@H](C)C(=O)N[C@@H](CC(C)C)C(=O)N[C@@H](CCCCN)C(=O)N1)[C@@H](C)CC)C(=O)N[C@@H](C)C(=O)N[C@@H](C)C(=O)N[C@@H](CC(C)C)C(=O)N[C@@H](CCCCN)C(=O)N[C@@H](CCC(=O)O)C(=O)NCC(=O)N[C@@H](Cc1c[nH]c2ccccc12)C(N)=O		circular dichroism at 222 nm	PBS	pH 7.4, 20 °C, single peptide 50 µM total		helicity	54%
OC1(C(F)(F)F)CCN(c2nc(Nc3ccnc(C(F)(F)F)c3)nc(-c3cccc(C(F)(F)F)n3)n2)C1 (centres unmarked)			monkey, plasma	oral, 3 mg/kg		half-life	18.3 ± 3.02 h
CCCCN1C(=O)c2cccc3c(NCCCCCN4CCOCC4)ccc(c23)C1=O			dichloromethane			fluorescence quantum yield	1.03
Cc1noc(C)c1Cn1cc(N2C(=O)CN(Cc3cccc(OS(=O)(=O)O)c3)C2=O)cn1			Sprague-Dawley rat, male	oral, 30 mg/kg of parent drug, 24 h		plasma concentration	14 ng/mL
CN1CCCC1C(=O)NC(Cc1ccc(-n2cccn2)cc1)B(O)O (centres unmarked)			Caco-2			Papp B→A	4.9 ×10⁻⁶ cm/s
Cc1nc(N)nc2c1C(=O)N[C@@H](c1ccc(F)cc1-c1cccc(OCC[18F])n1)C2			Wistar rats, blood	intravenous, dose not given, 35 min		radioactivity in blood cells	40 ± 1%
CC[C@H](C)[C@H](NC(=O)CNC(=O)[C@H](C)NC(=O)[C@H](CC(=O)O)NC(=O)[C@H](CO)NC(=O)[C@H](C)NC(=O)[C@H](CC(C)C)NC(=O)[C@H](CCCCN)NC(=O)[C@H](CCCCN)NC(=O)[C@H](CCSC)NC(=O)[C@H](CC(N)=O)NC(=O)[C@H](Cc1ccccc1)NC(=O)[C@H](CC(=O)O)NC(=O)[C@@H](N)CCSC)C(=O)N[C@@H](Cc1c[nH]c2ccccc12)C(=O)N[C@@H](Cc1ccccc1)C(=O)N[C@H](C(=O)N[C@@H](CCCNC(=N)N)C(=O)N[C@@H](C)C(=O)N[C@H](C(=O)N[C@@H](CCC(N)=O)C(=O)N[C@@H](Cc1ccccc1)C(=O)N[C@H](C(=O)N[C@@H](CCC(=O)O)C(=O)N[C@@H](CCC(=O)O)C(=O)N[C@@H](CCCCN)C(=O)N[C@@H](Cc1ccccc1)C(=O)NCC(=O)N[C@@H](CCC(N)=O)C(=O)N[C@@H](C)C(N)=O)[C@@H](C)O)C(C)C)[C@@H](C)O		circular dichroism	aqueous TFE	50 µM, pH 7.4, 20 °C		m value	2.55 ± 1.3 kcal/mol/M
COc1cccc(OC)c1-c1cc(C(=O)NC2(C(=O)O)C3CC4CC(C3)CC2C4)nn1-c1ccc(C(=O)N(C)CCCN(C)C(=O)[C@H](CCCCNC(=O)[C@H](CC(C)C)NC(=O)C2OC2C(=O)O)NC(=O)CN2CCN(CC(=O)[O-])CCN(CC(=O)[O-])CCN(CC(=O)[O-])CC2)cc1C(C)C.[177Lu+3] (mixture of isomers)			mouse, HT-29 xenograft, lung	24 h post injection		tissue uptake	1.7 %ID/g
Cc1nc(C)c(-c2ccnc(Nc3cccc(C#N)c3)n2)s1			octanol/buffer	pH 11		logP	3.89
CC[C@H](C)[C@@H]1NC(=O)[C@H](Cc2ccc(O)cc2)NC(=O)CCCSC[C@@H](C(=O)N(CC(=O)N[C@@H](CC(C)C)C(=O)NCC(N)=O)Cc2ccc(F)cc2)NC(=O)[C@H](CC(N)=O)NC(=O)[C@H](CCC(N)=O)NC1=O			healthy women, plasma	intranasal, 300 µg single dose		terminal half-life	0.6 h
C/C(N)=N/C(=N\S(=O)(=O)c1ccc(C(F)(F)F)cc1)N1C[C@H](c2ccccc2)C(c2ccc(Cl)cc2)=N1			C57BL/6 mouse, male, liver	intravenous, 10 mg/kg	baseline: liver over plasma	tissue/plasma ratio	10
Nc1cccc2ccc(/C=C/C(=O)c3ccc(C(F)(F)F)cc3)cc12			toluene	20 °C		excitation maximum	430 nm
C=CCCC[C@](C)(NC(=O)[C@H](Cc1c[nH]c2ccccc12)NC(=O)[C@H](Cc1ccc(O)cc1)NC(=O)[C@H](CCC(=O)O)NC(=O)[C@](C)(CCCC=C)NC(=O)[C@H](Cc1ccccc1)NC(=O)[C@@H](NC(=O)[C@H](CC(C)C)NC(C)=O)[C@@H](C)O)C(=O)N[C@@H](CCC(N)=O)C(=O)N[C@@H](CC(C)C)C(=O)N[C@H](C(=O)N[C@@H](CO)C(N)=O)[C@@H](C)O		circular dichroism	10 mM phosphate buffer	50 µM, pH 7.4		helicity	40%
CNS(=O)(=O)Nc1nccc(Cc2c(C)c3ccc(Oc4ncccc4F)cc3oc2=O)c1F	CAL-33	cell viability		7 days		IC50	0.346 µM
O=C(Nc1cnccc1-c1ccc([18F])cc1)c1ccnc(NC(=O)C2CC2)c1			FVB/NJ mice (both sexes), urine	intravenous, dose not given, 120 min, added: tariquidar 15 mg/kg i.v. pre-dose		SUV	15.3
COc1cccc(OC)c1-c1cc(C(=O)NC2(C(=O)O)C3CC4CC(C3)CC2C4)nn1-c1ccc(C(=O)N(C)CCOCCOCCN(C)C(=O)[C@H](CCCCNC(=O)[C@H](CC(C)C)NC(=O)C2OC2C(=O)O)NC(=O)CN2CCN(CC(=O)[O-])CCN(CC(=O)[O-])CCN(CC(=O)[O-])CC2)cc1C(C)C.[177Lu+3] (mixture of isomers)			mouse HT-29 xenograft	168 h, biodistribution	baseline: tumour over large intestine	tumour-to-large intestine ratio	17.6

A few entries again:
Structure (SMILES)	target or system	test	test system	conditions	scale	measurement	value
CCn1nc(Cl)c2c1-c1cnc(N)c(c1)O[C@H](C)c1cc(F)ccc1-c1nn(C)cc1C2			bovine, serum			fraction unbound	0.32
CC[C@H](C)[C@H](NC(=O)[C@H](N)Cc1ccc(O)cc1)C(=O)N[C@H]1CSSC[C@@H](C(=O)N(C)[C@H](C(=O)N[C@@H](CCCCN)C(=O)N[C@@H](CCCCN)C(=O)N[C@@H](CCCCN)C(N)=O)[C@@H](C)CC)NC(=O)[C@H](CCCNC(=N)N)NC(=O)[C@H](Cc2c[nH]cn2)NC(=O)[C@H](C)NC(=O)CN(C)C(=O)[C@H](Cc2c[nH]c3ccccc23)NC(=O)[C@H](CC(=O)O)NC(=O)[C@H](CCC(N)=O)NC(=O)[C@H](Cc2cn(C)c3ccccc23)NC(=O)[C@H](C(C)C)NC1=O			cynomolgus monkey, vitreous	intravitreal, dose not given, C3-saturating levels		intraocular residence	> 3 months
C=CC(=O)Nc1cc(Nc2nccc(-c3c[nH]c4ccccc34)n2)c(OC)cc1N(C)CCN(C)C		storage stability	human plasma	2 h, on ice, LLOQ level		recovery	99.6%
COc1ccc2nc(-c3ccc(N(C)C)cc3)sc2c1			PBS	free dye		excitation maximum wavelength	343 nm
CCCCC/C=C\CCCO[Si](CCCCN(CC)CC)(OCCC/C=C\CCCCC)OCCC/C=C\CCCCC				pH 5.5, formulated		zeta potential	1.89 mV
